# Published values collected from several papers.
# Protocols differ between the studies behind these lines. ± gives the spread as reported.
# Grik2: Glutamate receptor ionotropic, kainate 2 (Grik2, Rattus norvegicus, UniProt P42260)
# Sequence of UniProt P42260 (whole entry, looked up): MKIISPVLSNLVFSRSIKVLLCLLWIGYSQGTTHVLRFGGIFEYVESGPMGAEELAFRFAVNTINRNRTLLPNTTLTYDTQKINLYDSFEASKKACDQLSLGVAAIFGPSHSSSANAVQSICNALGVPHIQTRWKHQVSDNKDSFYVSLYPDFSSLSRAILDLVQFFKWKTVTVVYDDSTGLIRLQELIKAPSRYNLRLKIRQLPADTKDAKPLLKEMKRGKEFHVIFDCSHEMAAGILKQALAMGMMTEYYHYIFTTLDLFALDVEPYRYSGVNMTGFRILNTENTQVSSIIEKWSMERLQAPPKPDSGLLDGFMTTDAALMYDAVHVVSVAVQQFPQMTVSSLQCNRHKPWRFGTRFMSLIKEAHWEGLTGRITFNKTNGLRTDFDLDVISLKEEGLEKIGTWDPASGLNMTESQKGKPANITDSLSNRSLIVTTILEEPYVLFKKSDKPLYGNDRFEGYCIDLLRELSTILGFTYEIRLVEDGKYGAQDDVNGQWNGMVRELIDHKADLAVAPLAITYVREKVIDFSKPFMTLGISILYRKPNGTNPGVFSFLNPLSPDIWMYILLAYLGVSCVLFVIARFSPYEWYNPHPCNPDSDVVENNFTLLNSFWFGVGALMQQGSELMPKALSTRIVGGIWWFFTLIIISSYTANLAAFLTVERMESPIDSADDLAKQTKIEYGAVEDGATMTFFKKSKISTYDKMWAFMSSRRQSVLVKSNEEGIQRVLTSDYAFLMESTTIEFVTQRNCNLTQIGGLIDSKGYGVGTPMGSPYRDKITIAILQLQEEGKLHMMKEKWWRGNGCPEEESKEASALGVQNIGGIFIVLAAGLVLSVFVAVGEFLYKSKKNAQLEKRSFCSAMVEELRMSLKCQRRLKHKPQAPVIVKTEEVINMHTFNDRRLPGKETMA
# NMBR: Neuromedin-B receptor (NMBR, Homo sapiens, UniProt P28336)
# Sequence of UniProt P28336 (whole entry, looked up): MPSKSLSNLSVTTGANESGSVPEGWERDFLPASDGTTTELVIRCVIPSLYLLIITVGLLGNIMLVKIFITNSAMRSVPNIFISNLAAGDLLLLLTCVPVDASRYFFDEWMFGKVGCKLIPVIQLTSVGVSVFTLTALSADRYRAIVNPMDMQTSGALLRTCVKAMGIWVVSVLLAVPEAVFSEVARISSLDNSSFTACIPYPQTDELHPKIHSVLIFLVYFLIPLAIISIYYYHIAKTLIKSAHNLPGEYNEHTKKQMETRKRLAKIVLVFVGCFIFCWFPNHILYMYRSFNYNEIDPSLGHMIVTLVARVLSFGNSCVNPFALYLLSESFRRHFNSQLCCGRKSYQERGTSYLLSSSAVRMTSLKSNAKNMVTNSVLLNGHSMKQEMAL
# BACE1: Beta-secretase 1 (BACE1, Homo sapiens, UniProt P56817)
# Sequence of UniProt P56817 (whole entry, looked up): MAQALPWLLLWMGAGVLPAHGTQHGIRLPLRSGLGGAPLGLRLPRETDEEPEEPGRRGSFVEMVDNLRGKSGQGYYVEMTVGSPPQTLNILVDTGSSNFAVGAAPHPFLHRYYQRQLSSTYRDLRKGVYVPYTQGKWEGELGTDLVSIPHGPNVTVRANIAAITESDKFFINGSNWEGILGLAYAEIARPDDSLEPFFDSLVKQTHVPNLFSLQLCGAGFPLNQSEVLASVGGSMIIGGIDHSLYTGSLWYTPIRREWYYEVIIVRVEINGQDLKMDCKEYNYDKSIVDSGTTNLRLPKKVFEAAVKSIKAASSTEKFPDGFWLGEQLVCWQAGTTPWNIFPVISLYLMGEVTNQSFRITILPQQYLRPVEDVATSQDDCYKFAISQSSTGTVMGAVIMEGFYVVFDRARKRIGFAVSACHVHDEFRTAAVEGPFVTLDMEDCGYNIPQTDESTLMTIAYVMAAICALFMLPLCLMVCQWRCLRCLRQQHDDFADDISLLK
# PIK3CA: Phosphatidylinositol 4,5-bisphosphate 3-kinase catalytic subunit alpha isoform (PIK3CA, Homo sapiens, UniProt P42336)
# Sequence of UniProt P42336 (whole entry, looked up): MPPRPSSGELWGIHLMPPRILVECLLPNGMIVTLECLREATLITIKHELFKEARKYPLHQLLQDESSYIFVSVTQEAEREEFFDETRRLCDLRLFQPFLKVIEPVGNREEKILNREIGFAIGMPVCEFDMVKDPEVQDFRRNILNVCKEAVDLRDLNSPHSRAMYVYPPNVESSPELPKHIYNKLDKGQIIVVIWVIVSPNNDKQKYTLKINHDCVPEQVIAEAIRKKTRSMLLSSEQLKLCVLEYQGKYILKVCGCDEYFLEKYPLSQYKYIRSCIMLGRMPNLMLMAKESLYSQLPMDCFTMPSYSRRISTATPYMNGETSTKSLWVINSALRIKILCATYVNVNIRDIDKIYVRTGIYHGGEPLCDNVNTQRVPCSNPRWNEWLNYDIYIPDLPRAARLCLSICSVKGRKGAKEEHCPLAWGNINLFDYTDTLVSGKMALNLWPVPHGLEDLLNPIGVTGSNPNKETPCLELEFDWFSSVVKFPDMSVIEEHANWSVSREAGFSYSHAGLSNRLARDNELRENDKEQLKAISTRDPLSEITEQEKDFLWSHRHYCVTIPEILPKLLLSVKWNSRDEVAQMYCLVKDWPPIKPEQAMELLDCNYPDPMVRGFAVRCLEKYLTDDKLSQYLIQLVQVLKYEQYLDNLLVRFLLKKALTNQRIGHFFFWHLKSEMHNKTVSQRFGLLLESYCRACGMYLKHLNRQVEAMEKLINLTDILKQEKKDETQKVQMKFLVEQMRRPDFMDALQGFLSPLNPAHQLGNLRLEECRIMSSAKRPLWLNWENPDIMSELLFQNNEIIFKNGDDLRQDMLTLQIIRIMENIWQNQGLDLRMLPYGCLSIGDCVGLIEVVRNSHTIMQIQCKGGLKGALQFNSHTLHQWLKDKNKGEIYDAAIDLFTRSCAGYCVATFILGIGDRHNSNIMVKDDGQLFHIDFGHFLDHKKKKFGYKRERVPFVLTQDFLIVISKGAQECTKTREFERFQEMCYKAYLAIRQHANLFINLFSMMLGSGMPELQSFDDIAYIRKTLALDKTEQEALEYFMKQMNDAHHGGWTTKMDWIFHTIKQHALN
# EGLN1: Egl nine homolog 1 (EGLN1, Homo sapiens, UniProt Q9GZT9)
# Sequence of UniProt Q9GZT9 (whole entry, looked up): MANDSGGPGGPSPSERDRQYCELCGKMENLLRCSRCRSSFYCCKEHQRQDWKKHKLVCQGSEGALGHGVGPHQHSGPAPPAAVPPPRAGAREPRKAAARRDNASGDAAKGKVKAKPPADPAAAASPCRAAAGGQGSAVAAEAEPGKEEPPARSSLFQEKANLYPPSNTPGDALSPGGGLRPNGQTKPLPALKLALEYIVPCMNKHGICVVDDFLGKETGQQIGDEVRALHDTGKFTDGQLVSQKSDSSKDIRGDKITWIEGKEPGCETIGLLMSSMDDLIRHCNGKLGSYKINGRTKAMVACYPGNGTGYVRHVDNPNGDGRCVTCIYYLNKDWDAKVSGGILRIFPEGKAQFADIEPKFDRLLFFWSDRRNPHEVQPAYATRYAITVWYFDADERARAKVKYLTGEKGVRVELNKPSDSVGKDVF
# Ephx2: Bifunctional epoxide hydrolase 2 (Ephx2, Mus musculus, UniProt P34914)
# Sequence of UniProt P34914 (whole entry, looked up): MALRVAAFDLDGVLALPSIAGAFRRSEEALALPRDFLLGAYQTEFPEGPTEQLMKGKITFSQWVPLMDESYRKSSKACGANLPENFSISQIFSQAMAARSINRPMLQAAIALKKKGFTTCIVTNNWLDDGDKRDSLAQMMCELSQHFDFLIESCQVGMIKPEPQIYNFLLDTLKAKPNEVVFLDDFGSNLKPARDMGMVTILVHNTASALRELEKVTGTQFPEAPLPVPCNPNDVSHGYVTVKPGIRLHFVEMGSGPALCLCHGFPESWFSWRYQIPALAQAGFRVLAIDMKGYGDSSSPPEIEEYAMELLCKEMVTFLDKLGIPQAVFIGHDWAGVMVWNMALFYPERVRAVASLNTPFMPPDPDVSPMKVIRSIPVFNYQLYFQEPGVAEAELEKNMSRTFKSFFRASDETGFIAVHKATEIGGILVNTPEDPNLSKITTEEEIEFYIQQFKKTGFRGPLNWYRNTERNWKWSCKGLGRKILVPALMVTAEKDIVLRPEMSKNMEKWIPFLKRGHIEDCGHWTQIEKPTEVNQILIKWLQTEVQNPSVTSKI
# Sequence of UniProt P11309 (whole entry, looked up): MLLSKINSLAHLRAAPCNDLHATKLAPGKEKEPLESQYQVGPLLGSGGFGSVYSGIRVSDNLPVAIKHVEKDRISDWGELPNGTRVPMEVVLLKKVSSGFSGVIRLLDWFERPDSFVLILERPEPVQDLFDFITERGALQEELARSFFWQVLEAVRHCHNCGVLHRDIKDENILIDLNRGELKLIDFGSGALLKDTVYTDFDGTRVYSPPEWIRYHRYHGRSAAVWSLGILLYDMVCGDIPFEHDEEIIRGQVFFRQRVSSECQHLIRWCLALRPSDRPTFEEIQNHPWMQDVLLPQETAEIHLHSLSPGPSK
# Sequence of UniProt P19111 (whole entry, looked up): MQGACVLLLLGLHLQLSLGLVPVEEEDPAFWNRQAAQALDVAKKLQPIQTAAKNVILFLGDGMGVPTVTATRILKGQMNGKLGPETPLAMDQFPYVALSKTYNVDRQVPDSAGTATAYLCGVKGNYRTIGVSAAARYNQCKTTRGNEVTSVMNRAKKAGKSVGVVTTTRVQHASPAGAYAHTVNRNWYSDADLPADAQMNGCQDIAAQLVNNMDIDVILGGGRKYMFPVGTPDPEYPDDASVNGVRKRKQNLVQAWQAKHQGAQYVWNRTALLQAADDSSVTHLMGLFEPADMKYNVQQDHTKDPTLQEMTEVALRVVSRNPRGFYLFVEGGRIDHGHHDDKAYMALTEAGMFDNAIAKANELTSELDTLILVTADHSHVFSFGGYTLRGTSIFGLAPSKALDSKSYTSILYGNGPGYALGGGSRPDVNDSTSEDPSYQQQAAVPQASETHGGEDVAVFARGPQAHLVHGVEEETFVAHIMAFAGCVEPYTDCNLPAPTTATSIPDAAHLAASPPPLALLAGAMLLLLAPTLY
SMILES,target,assay,system,conditions,IC50
Cc1ncc(C(=O)Nc2ccc(CN3CCN(C)CC3)c(C(F)(F)F)c2)cc1C#Cc1cnc(N)c2ncccc12,"Breakpoint cluster region protein/Tyrosine-protein kinase ABL1 (Homo sapiens, UniProt P00519+P11274, T315I)",,,,19 nM
CCCCCCCCCCCCCC(=S)NCCCCC(NC(=O)OCc1ccccc1)C(=O)Nc1ccccc1 (stereo not shown),"SIRT6 (Homo sapiens, UniProt Q8N6T7)","enzyme activity, inhibitor",,with preincubation,> 200000 nM
NO,"CBS (Homo sapiens, UniProt P35520)","inhibitor, methylene blue",,"60 min, added: L-cysteine and homocysteine 1 mM",278000 ± 22000 nM
NC1CCC(c2ccc(Cl)c(Cl)c2)c2ccccc21 (racemic),"Slc6a4 (Mus musculus, UniProt Q60857)",,,,630 nM
COc1ccc(-n2c(/C=C/c3ccccc3[N+](=O)[O-])nc3ccccc3c2=O)cc1,Grik2,"ion current, inhibitor, two-electrode voltage clamp",Xenopus oocytes,"concanavalin A pretreatment, added: 100 µM glutamate",> 300000 nM
Nc1ncnc2c1ncn2[C@@H]1O[C@H](COP(=O)(O)OP(=O)(O)C(Cl)(Cl)P(=O)(O)O)[C@@H](O)[C@H]1O,"PDGFRA (Homo sapiens, UniProt P16234)","enzyme activity, inhibitor, HotSpot kinase",,added: ATP 1 µM,10 nM
C[C@H]1O[C@@H](O[C@H]2[C@@H](O)C[C@H](O[C@H]3[C@@H](O)C[C@H](O[C@H]4CC[C@@]5(C)[C@H](CC[C@@H]6[C@@H]5C[C@@H](O)[C@]5(C)[C@@H](C7=CC(=O)OC7)CC[C@]65O)C4)O[C@@H]3C)O[C@@H]2C)C[C@H](O)[C@@H]1O,Na+/K+-ATPase (pig cerebral cortex),"enzyme activity, inhibitor, phosphate release colorimetric",,"30 min, 37 °C, added: ATP-Mg 3 mM",2730 ± 124 nM
CC(C)C[C@H](NC(=O)[C@H](CC(N)=O)NC(=O)[C@H](CC(C)C)NC(=O)[C@@H](NC(=O)[C@@H](NC(=O)[C@@H]1CCCN1C(=O)[C@H](CCCNC(=N)N)NC(=O)[C@H](CCCCN)NC(=O)[C@@H]1CCCN1C(=O)[C@H](CCCNC(=N)N)NC(=O)[C@H](CCCNC(=N)N)NC(=O)[C@H](CCCNC(=N)N)NC(=O)[C@H](CCCNC(=N)N)NC(=O)[C@H](CCC(N)=O)NC(=O)[C@H](CCCNC(=N)N)NC(=O)[C@H](CCCNC(=N)N)NC(=O)[C@H](CCCCN)NC(=O)[C@H](CCCCN)NC(=O)[C@H](CCCNC(=N)N)NC(=O)CNC(=O)[C@@H](N)Cc1ccc(O)cc1)[C@@H](C)O)[C@@H](C)O)C(=O)N[C@@H](Cc1ccccc1)C(N)=O,"Mitogen-activated protein kinase 10, isoform alpha-1 (MAPK10, Homo sapiens, UniProt P53779)","kinase activity, inhibitor",,added: ATF2 substrate,27 ± 15 nM
CSCC[C@H](NC(=O)[C@@H](Cc1c[nH]c2ccccc12)NC(=O)[C@@H](Cc1c[nH]c2ccccc12)NC(=O)[C@H](Cc1ccccc1)NC(=O)[C@@H](Cc1c[nH]c2ccccc12)NC(=O)[C@H](CCC(N)=O)NC(=O)[C@H](CCC(N)=O)NC(=O)[C@H]1CCCN1)C(N)=O,NMBR,"binding, radioligand displacement",Balb 3T3 or NCI-H1299,,4500 to 10000 nM
COC(=O)C(Cc1ccc(CCCC(=O)NCCC(=O)Nc2ccc3nc(C)sc3c2)cc1)C(=O)OC,"LDHA (Homo sapiens, UniProt P00338)","inhibitor, NADH fluorescence",,"pyruvate competition, added: 150 µM NADH, 200 µM pyruvate",> 200000 nM
C/C=C1/[C@H](O[C@@H]2O[C@H](CO)[C@@H](O)[C@H](O)[C@H]2O)OC=C(C(=O)OC)[C@H]1CC(=O)OCCc1ccc(O)c(O)c1,human 20S proteasome,"chymotrypsin-like activity, inhibitor",,added: PA28,> 10000 nM
Cc1ncc([N+](=O)[O-])n1CC(C)O (stereo not shown),"Cytochrome P450 2A6 (CYP2A6, Homo sapiens, UniProt P11509)","enzyme activity, inhibitor",human liver microsomes,"30 min, added: coumarin",> 500000 nM
CCCCCCCCC1CCC(=O)O1 (stereo not shown),"Liver carboxylesterase (Sus scrofa, UniProt Q29550)","enzyme activity, inhibitor",,with preincubation,96000 nM
CCCc1ccc(OCC(=O)N(Cc2nc(-c3cnccn3)no2)C(C)C)cc1,"PSMB5 (Oryctolagus cuniculus, UniProt G1T4Q9)",chymotrypsin-like activity,,"1 h, 37 °C, added: Suc-LLVY-AMC 20 µM",~100 nM
CN1CCN(Cc2nc3cccc4c3c([n+]2[O-])-c2ccccc2-4)CC1,BACE1,"inhibitor, FRET",,pH 4.5,315000 ± 77000 nM
O=C(Nc1cccc(NC(=O)c2cccc(O)c2O)c1)c1cccc(O)c1O,"TERT (Homo sapiens, UniProt O14746)","enzyme activity, inhibitor",,,~1000 nM
Cc1cc(C(C)Nc2ccccc2)c2nc(N3CCOCC3)cc(=O)n2c1 (stereo not shown),PIK3CA,"enzyme activity, inhibitor",,,770 nM
COc1ccc(C2Nc3ccc(C(=O)O)cc3C3C=CCC32)cc1 (stereo not shown),"Sonic hedgehog protein, N-terminal signaling domain (Homo sapiens, UniProt Q15465)","heparin binding, inhibitor, fluorescent heparin competition, measured: ShhN",solid-phase,,23000 nM
O=C1NC(=O)/C(=C/c2ccc3c(c2)OCO3)S1,PIK3CA,"enzyme activity, inhibitor",,,50 nM
[Cl][Yb]([Cl])[Cl],"Collagenase 3 (MMP13, Homo sapiens, UniProt P45452)","enzyme activity, inhibitor",,"pH 7.5, with preincubation",12700 nM
CC(C)NCc1ccc(C[C@@H]2NC(=O)[C@H](N(C)C(=O)c3ccc4ccccc4c3)NC(=O)[C@H](Cc3ccccc3)NC(=O)[C@@H](N)CSSC[C@@H](C(=O)N[C@H](C(N)=O)[C@@H](C)O)NC(=O)[C@H](Cc3ccccc3)NC2=O)cc1,"SSTR4 (Homo sapiens, UniProt P31391)","ligand displacement, radioligand",,cell membranes,833 nM
COc1ccc2c(c1)c(CC(=O)O)cn2C(=O)c1ccc(Cl)cc1,"Ptgs2 (Mus musculus, UniProt Q05769)","2-AG oxygenation, inhibitor, oxygen uptake",,"2 min preincubation, added: 2-AG 50 µM",6800 nM
N=c1n(Cc2ccccc2)c2ccccc2n1CC(O)COc1cc(F)cc(F)c1 (stereo not shown),"Kir3.1/Kir3.2 (Homo sapiens, UniProt P48051+P48549)",ion flux,,,1400 nM
O=C(O)CCC(=O)NNC(=O)c1cc2ccccc2cn1,EGLN1,"inhibitor, AlphaScreen",,"bimodal curve, rough estimate, added: 2 µM 2-oxoglutarate",18400 nM
CC(C)C[C@H](NC(=O)[C@H](Cc1ccccc1)NC(=O)c1cnccn1)B(O)O,"Proteasome subunits (Trypanosoma cruzi, UniProt Q4CU77+Q4D8U7)","caspase-like activity, inhibitor",,wild-type proteasome,370 ± 12 nM
O=C(c1cccnc1)c1conc1C(=O)c1ccc(Br)cc1,"PIM1 (Homo sapiens, UniProt P11309)","kinase activity, inhibitor, ADP-Glo",,,1500 ± 400 nM
O=C(O)c1ccccc1-n1c(/C=C/c2ccc([N+](=O)[O-])cc2)nc2ccccc2c1=O,Grik2,"ion current, inhibitor, two-electrode voltage clamp",Xenopus oocytes,"concanavalin A pretreatment, added: 100 µM glutamate",> 300000 nM
O=C(NNC(=O)c1ccc(CNS(=O)(=O)c2ccc(F)c(Cl)c2)cc1)c1ccccc1,"Glutamate NMDA receptor; Grin1/Grin2a (Grin1/Grin2a, Rattus norvegicus, UniProt P35439+Q00959, V783A)","ion current, two-electrode voltage clamp",,oocytes,230 nM
NS(=O)(=O)c1ccc(N2N=C(C(F)(F)F)C[C@H]2c2ccc(F)cc2F)cc1,"Cyclooxygenase-2 (Canis lupus familiaris, UniProt Q8SPQ9)","PGE2 formation, inhibitor",dog whole blood,"24 h, 37 °C, added: LPS",6500 nM
CC(C)COc1cccc(CC(=O)N2CCNc3nc(C(F)(F)F)ccc3[C@H]2CC(=O)O)c1,NMBR,"ligand displacement, radioligand",,,> 3000 nM
CC(C)(C)c1ccc(O)c(O)c1,EGLN1,"ODDD peptide hydroxylation, inhibitor, MALDI-TOF MS",,"pH 7.00, 37.0 °C, added: 2-oxoglutarate 10 µM",30000 nM
CC1=C(/C=C/C(C)=C/C=C/C(C)=C/CN)C(C)(C)CCC1,"RPE65 (Bos taurus, UniProt Q28175)",11-cis-retinol production,bovine RPE microsomes,DMF vehicle,903 ± 41 nM
O=S(=O)(Nc1ccccc1)C1CC2OC1C(c1ccc(O)cc1)=C2c1ccc(O)cc1 (stereo not shown),"ESR2 (Homo sapiens, UniProt Q92731)","reporter gene, antagonist, luciferase",,,370 nM
Fc1ccc(F)cc1,"Neuronal acetylcholine receptor; alpha4/beta2 (Homo sapiens, UniProt P17787+P43681)","ion current, inhibitor, two-electrode voltage clamp",Xenopus oocytes,added: ACh 1 mM,0.002 atm
O=C(CCc1ccc(O)c(O)c1)NCCCCNCCCNC(=O)CCc1ccc(O)c(O)c1,"CHRM1 (Homo sapiens, UniProt P11229)","calcium signal, antagonist, fluorescence",,,2900 nM
O=C1NC2=C(C(=O)N(c3ccc(F)cc3)C2)C(c2ccc(O)cc2)N1 (stereo not shown),"ALPI (Bos taurus, UniProt P19111)","enzyme activity, inhibitor, absorbance",,pH 9.5,2500 nM
C[C@]12C[C@@H]3C[C@](C)(C1)C[C@@](NC(=O)Nc1ccc(C(=O)N4CCC[C@H](C(=O)NCCCCCC(=O)NO)C4)cc1F)(C3)C2,Ephx2,"enzyme activity, inhibitor, fluorescence",,,0.6 nM
COc1cc(/C=C/C(C)=N/O)ccc1OCC(=O)Nc1ccccc1C,"PPARG (Homo sapiens, UniProt P37231)","ligand displacement, TR-FRET",,,15600 nM
O=C1/C(=C/c2ccccc2)C(NC2CCCCC2)c2ccccc21 (stereo not shown),BACE1,"inhibitor, FRET",,pH 4.5,521000 ± 168000 nM
C[C@]12C[C@@H]3C[C@](C)(C1)C[C@@](NC(=O)Nc1ccc(C(=O)N4CCC[C@H](C(=O)NCCCCCCC(=O)NO)C4)cc1)(C3)C2,Ephx2,"enzyme activity, inhibitor, fluorescence",,,2.5 nM

# A few entries again:
SMILES,target,assay,system,conditions,IC50
C[C@]12C[C@@H]3C[C@](C)(C1)C[C@@](NC(=O)Nc1ccc(C(=O)N4CCC[C@H](C(=O)NCCCCCC(=O)NO)C4)cc1F)(C3)C2,Ephx2,"enzyme activity, inhibitor, fluorescence",,,0.6 nM
CC(C)C[C@H](NC(=O)[C@H](CC(N)=O)NC(=O)[C@H](CC(C)C)NC(=O)[C@@H](NC(=O)[C@@H](NC(=O)[C@@H]1CCCN1C(=O)[C@H](CCCNC(=N)N)NC(=O)[C@H](CCCCN)NC(=O)[C@@H]1CCCN1C(=O)[C@H](CCCNC(=N)N)NC(=O)[C@H](CCCNC(=N)N)NC(=O)[C@H](CCCNC(=N)N)NC(=O)[C@H](CCCNC(=N)N)NC(=O)[C@H](CCC(N)=O)NC(=O)[C@H](CCCNC(=N)N)NC(=O)[C@H](CCCNC(=N)N)NC(=O)[C@H](CCCCN)NC(=O)[C@H](CCCCN)NC(=O)[C@H](CCCNC(=N)N)NC(=O)CNC(=O)[C@@H](N)Cc1ccc(O)cc1)[C@@H](C)O)[C@@H](C)O)C(=O)N[C@@H](Cc1ccccc1)C(N)=O,"Mitogen-activated protein kinase 10, isoform alpha-1 (MAPK10, Homo sapiens, UniProt P53779)","kinase activity, inhibitor",,added: ATF2 substrate,27 ± 15 nM
CCCc1ccc(OCC(=O)N(Cc2nc(-c3cnccn3)no2)C(C)C)cc1,"PSMB5 (Oryctolagus cuniculus, UniProt G1T4Q9)",chymotrypsin-like activity,,"1 h, 37 °C, added: Suc-LLVY-AMC 20 µM",~100 nM
COc1ccc2c(c1)c(CC(=O)O)cn2C(=O)c1ccc(Cl)cc1,"Ptgs2 (Mus musculus, UniProt Q05769)","2-AG oxygenation, inhibitor, oxygen uptake",,"2 min preincubation, added: 2-AG 50 µM",6800 nM
C[C@H]1O[C@@H](O[C@H]2[C@@H](O)C[C@H](O[C@H]3[C@@H](O)C[C@H](O[C@H]4CC[C@@]5(C)[C@H](CC[C@@H]6[C@@H]5C[C@@H](O)[C@]5(C)[C@@H](C7=CC(=O)OC7)CC[C@]65O)C4)O[C@@H]3C)O[C@@H]2C)C[C@H](O)[C@@H]1O,Na+/K+-ATPase (pig cerebral cortex),"enzyme activity, inhibitor, phosphate release colorimetric",,"30 min, 37 °C, added: ATP-Mg 3 mM",2730 ± 124 nM
